Results gathered from unrelated publications.
A part holds a random share of what one study measured. “And” joins repeats or separate records; there may be more than shown.

Sample 1
Organism: Sarcocystis neurona
Read-out: parasite growth
Concentration: 10 µM
Time: 96 h
Setting: first screen
Measurement: inhibition
CNCC(O)c1ccc(O)cc1 (stereo not shown): -13.9%
COc1ccc(C(CN(C)C)C2(O)CCCCC2)cc1 (stereo not shown): 11.4%
CC(NC(C)(C)C)C(=O)c1cccc(Cl)c1 (stereo not shown): -23.2%
Cc1ncc2n1-c1ccc(Cl)cc1C(c1ccccc1F)=NC2: -13.2%
Cc1nnc2n1-c1ccc(Cl)cc1C(c1ccccc1)=NC2: 4.4%

Sample 2
Target: Eukaryotic initiation factor 4A-III (Homo sapiens, UniProt P38919)
Chain of UniProt P38919 (whole entry, looked up): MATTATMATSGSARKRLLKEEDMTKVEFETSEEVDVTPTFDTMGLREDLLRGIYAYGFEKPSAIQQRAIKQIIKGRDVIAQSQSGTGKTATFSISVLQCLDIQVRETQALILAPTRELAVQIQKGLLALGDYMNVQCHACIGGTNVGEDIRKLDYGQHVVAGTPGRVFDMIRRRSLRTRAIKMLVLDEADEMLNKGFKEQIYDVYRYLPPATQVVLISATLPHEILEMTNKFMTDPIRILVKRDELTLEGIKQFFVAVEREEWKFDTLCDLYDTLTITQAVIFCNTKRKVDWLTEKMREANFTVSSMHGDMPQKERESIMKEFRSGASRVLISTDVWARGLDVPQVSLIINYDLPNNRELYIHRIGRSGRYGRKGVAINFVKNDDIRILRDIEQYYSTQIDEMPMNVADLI
Read-out: RNA clamping
Method: fluorescence polarization
Concentration: concentration not given
Added: FAM-labelled poly r(AG)8 RNA
Measurement: fluorescence polarization change
COc1ccc([C@@]23Oc4cc(OC)cc(OC)c4[C@]2(O)c2nc[nH]c(=O)c2[C@H]3c2ccccc2)cc1: 9.1 mP
COc1ccc([C@@]23Oc4cc(OC)cc(OC)c4[C@]2(O)c2nc4n(c(=O)c2[C@H]3c2ccccc2)CCCC4)cc1: 22.3 mP
COC(=O)[C@H]1[C@H](c2ccccc2)[C@@]2(c3ccc(Br)cc3)Oc3cc(OC)cc(OC)c3[C@]1(O)[C@H]2O: -7.5 mP
COC(=O)[C@H]1[C@@H](O)[C@@]2(O)c3c(OC)cc(O)cc3O[C@@]2(c2ccc(OC)cc2)[C@@H]1c1ccccc1: 44.3 mP
COc1ccc([C@@]23Oc4cc(OC)cc(OC)c4[C@]2(O)[C@H](O)C[C@H]3c2ccccc2)cc1: 41.2 mP
CCCCC1=N[C@@]2(O)[C@H](C(=O)OC)[C@@H](c3ccccc3)[C@]3(c4ccc(OC)cc4)Oc4cc(OC)cc(OC)c4[C@]23N1: 38.8 mP
COC(=O)[C@H]1[C@@H](O)[C@@]2(O)c3c(OC)cc(OC)cc3O[C@@]2(c2ccc(OC)cc2)[C@@H]1c1ccccc1: 24.2 mP and 50 mP
COc1ccc([C@@]23Oc4cc(OC)cc(OC)c4[C@]2(O)c2nc(-c4ccccc4)[nH]c(=O)c2[C@@H]3c2ccccc2)cc1: 3.1 mP
COC(=O)[C@@H]1[C@@H](c2ccccc2)[C@]2(c3ccccc3)Oc3ccccc3[C@@]1(O)[C@H]2O: -3.3 mP
COc1ccc([C@@]23Oc4cc(OC)cc(OC)c4[C@]2(O)c2nc(-c4ccc(OCc5ccccc5)cc4)[nH]c(=O)c2[C@H]3c2ccccc2)cc1: 3.4 mP
COc1ccc([C@@]23Oc4cc(OC)cc(OC)c4[C@@]24NC(C)=N[C@@]4(O)[C@H](C(=O)N(C)OC)[C@H]3c2ccccc2)cc1: 80.1 mP

Sample 3
Target: Muscarinic acetylcholine receptor M1 (CHRM1, Homo sapiens, UniProt P11229)
Chain of UniProt P11229 (whole entry, looked up): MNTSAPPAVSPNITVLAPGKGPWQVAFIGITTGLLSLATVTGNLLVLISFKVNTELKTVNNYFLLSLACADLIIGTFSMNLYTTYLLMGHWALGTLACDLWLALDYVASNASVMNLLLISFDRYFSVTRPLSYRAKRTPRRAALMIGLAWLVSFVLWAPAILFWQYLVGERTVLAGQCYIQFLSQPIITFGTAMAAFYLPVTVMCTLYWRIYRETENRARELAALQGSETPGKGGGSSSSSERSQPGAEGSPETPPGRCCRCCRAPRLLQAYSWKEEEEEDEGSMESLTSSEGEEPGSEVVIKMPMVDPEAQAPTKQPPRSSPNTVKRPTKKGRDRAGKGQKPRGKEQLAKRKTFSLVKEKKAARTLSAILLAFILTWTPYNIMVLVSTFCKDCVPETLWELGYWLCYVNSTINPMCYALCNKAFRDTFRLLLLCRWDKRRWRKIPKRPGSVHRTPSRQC
Read-out: binding
Method: radioligand binding
Concentration: 10 µM
Measurement: inhibition
CC(C)CC(=O)N1CCc2nc(-c3ccc(Br)cc3)nc(N(C)Cc3ccccc3)c2C1: 4.18%
COc1nc2ccc([C@@](O)(c3ccccc3)C3CCN(C(C)=O)CC3)cc2c(Cl)c1Cc1ccc(-n2cccn2)cc1: 5.4%
O[C@]1(C(F)(F)F)CCCC[C@H]1Nc1ccc(F)cc1: 8.3%
Cc1nc(N2CC[C@@H](O)C2)ncc1-c1cc(C(F)(F)F)cc2[nH]ncc12: 1.12%
CNC(=O)c1cc(C(=O)NC2CC2)cn(Cc2ccccc2)c1=O: -15.7%
Cc1c(NC(=O)c2cc(C(N)=O)nc3cc(F)ccc23)c(C(F)(F)F)nn1Cc1ccc(C(C)(C)C)cc1: 37.2%
C[C@@H]1CN(c2cc(-c3nn(C)c4ccc(OC5(C)CC5)cc34)ncn2)C[C@H](C)O1: -1.02%
CC(=O)Nc1nc(CN2CCC[C@H](Cc3cc(C)nc(C)c3)C2)cs1: 25.4%
CCOCCn1cc(C(=O)Nc2ccc(-n3nc(-c4cccnc4)cc3C(F)(F)F)cn2)ccc1=O: -12%
O=C(Nc1ccc(-n2nc(-c3cccnc3)cc2C(F)(F)F)cn1)c1ccc(-c2ccccc2)c(F)c1: 25.5%
CS(=O)(=O)NCC[C@H](NC(=O)c1cncc2c1cnn2-c1ccc(F)cc1)c1ccnc(S(C)(=O)=O)c1: -17%
Cc1nccc(COC(=O)N2C[C@@H]3[C@@H](CNC(=O)c4ccc5[nH]nnc5c4)[C@@H]3C2)n1: -23.9%
COc1cc(-c2cn(C3CCc4ccccc4N(CC(F)(F)F)C3=O)nn2)ccc1-n1ccc(C)n1 (stereo not shown): -12.6%
O=C([C@H]1C[C@H](O)CN1c1ccc(Cl)cc1)N1CC2COCC(C1)N2Cc1ccc(Cl)cc1: -3.85%
Cc1nc(C2CCN(C(=O)c3ccc(OC(F)(F)F)cc3N)CC2)c2ncc(N3CCN(C)CC3)cc2n1: 2.76%
CN(C)C(=O)Cn1cc(-c2nc([C@@](C)(c3ccc(-c4cnc(N)nc4)cc3)C3CC3)no2)cn1: -4.93%

Single results of other studies
Species: mouse
Sample: microsomes or S9
Concentration: 2 µM
Time: 0.5 h
COc1cc(/C=C2\C(=O)N=C(O)N=C2O)ccc1OCc1ccc(Cl)cc1  remaining compound: 56.5%
CC(=O)Nc1cccc(C2(C)C(=O)N(C)C(=O)N(C)C2=O)c1  remaining compound: 81.5%

Some of these lines once more (sample 1):
CNCC(O)c1ccc(O)cc1 (stereo not shown): -13.9%
COc1ccc(C(CN(C)C)C2(O)CCCCC2)cc1 (stereo not shown): 11.4%
CC(NC(C)(C)C)C(=O)c1cccc(Cl)c1 (stereo not shown): -23.2%
Cc1ncc2n1-c1ccc(Cl)cc1C(c1ccccc1F)=NC2: -13.2%
Cc1nnc2n1-c1ccc(Cl)cc1C(c1ccccc1)=NC2: 4.4%
